Results collected from several papers.
Parts stem from different laboratories: compare values within a part only.
Sequence of UniProt P18089 (whole entry, looked up): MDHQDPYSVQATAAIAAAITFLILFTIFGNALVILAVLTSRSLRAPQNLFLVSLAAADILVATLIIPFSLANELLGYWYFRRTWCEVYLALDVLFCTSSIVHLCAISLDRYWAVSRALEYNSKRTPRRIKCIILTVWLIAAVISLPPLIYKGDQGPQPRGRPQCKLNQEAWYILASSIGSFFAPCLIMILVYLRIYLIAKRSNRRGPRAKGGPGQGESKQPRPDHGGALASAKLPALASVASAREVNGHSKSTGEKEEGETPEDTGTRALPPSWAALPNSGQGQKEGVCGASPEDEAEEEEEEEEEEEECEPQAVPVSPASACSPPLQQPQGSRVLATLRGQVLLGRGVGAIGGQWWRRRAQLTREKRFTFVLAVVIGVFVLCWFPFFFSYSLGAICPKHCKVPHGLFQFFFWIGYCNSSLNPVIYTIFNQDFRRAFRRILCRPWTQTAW
Sequence of UniProt P27448 (whole entry, looked up): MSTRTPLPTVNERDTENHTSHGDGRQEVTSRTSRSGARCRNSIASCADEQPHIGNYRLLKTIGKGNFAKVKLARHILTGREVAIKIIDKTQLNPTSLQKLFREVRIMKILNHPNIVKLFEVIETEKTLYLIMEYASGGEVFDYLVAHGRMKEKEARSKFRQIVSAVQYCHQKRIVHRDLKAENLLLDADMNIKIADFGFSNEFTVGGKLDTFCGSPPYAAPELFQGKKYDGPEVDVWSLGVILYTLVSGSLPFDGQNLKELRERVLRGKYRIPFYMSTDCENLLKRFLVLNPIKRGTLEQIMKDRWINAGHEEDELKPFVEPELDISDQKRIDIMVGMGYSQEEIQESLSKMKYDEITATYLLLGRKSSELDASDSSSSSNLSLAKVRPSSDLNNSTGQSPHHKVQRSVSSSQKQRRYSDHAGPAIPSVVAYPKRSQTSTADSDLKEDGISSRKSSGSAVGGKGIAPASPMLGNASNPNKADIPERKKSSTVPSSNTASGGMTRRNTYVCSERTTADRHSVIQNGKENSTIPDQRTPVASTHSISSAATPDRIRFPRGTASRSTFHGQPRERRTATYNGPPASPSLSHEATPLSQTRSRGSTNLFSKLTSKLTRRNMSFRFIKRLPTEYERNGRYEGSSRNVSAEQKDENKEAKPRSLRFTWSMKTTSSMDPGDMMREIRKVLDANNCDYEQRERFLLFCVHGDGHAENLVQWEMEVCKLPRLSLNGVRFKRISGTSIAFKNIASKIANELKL
Sequence of UniProt Q16512 (whole entry, looked up): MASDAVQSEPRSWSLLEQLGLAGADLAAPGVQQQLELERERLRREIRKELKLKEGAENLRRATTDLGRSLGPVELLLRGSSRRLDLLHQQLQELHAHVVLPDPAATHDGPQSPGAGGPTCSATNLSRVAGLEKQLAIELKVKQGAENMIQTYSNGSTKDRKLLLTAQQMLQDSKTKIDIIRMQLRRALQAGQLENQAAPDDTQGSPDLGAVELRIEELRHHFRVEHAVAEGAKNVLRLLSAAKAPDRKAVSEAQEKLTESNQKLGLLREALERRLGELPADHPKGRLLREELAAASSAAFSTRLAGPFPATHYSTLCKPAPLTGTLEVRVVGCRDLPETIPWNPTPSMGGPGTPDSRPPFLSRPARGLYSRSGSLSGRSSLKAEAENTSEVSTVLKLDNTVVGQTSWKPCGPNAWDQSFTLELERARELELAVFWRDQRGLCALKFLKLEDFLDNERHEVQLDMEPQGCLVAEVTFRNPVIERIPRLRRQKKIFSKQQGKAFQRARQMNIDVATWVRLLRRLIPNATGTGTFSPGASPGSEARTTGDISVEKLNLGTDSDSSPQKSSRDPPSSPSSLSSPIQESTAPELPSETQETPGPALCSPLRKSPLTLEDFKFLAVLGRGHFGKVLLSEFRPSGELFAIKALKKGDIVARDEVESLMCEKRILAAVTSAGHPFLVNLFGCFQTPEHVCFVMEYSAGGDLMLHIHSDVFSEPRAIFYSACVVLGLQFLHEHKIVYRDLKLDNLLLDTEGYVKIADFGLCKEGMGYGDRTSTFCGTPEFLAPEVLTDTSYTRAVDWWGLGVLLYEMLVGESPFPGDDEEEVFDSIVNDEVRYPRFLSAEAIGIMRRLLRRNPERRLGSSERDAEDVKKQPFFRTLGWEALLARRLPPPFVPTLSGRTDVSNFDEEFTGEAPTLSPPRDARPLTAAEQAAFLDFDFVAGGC
Sequence of UniProt P08173 (whole entry, looked up): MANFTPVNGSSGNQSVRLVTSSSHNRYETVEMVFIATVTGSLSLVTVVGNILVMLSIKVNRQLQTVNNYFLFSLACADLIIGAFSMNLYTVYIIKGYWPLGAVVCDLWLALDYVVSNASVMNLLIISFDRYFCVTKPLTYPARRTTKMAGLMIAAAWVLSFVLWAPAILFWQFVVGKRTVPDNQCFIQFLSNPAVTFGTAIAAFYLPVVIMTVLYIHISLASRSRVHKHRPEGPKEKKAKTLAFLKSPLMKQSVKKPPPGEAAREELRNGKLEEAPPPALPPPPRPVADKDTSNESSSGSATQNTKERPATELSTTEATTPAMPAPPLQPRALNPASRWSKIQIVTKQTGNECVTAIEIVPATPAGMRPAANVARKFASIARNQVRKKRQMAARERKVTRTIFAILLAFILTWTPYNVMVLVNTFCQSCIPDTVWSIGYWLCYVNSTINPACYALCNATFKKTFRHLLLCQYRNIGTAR
Sequence of UniProt P13945 (whole entry, looked up): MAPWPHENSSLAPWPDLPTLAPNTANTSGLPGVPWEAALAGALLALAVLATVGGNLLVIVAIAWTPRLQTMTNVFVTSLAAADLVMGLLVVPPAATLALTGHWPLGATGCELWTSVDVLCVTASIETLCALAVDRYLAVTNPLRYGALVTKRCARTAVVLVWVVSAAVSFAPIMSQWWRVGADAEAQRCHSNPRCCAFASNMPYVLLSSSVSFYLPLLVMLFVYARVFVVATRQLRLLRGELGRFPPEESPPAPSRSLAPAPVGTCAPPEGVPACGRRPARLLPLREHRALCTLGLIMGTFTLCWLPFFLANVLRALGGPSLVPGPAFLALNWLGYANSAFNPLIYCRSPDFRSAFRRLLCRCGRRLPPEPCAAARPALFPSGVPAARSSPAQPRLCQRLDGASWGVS
Sequence of UniProt Q08881 (whole entry, looked up): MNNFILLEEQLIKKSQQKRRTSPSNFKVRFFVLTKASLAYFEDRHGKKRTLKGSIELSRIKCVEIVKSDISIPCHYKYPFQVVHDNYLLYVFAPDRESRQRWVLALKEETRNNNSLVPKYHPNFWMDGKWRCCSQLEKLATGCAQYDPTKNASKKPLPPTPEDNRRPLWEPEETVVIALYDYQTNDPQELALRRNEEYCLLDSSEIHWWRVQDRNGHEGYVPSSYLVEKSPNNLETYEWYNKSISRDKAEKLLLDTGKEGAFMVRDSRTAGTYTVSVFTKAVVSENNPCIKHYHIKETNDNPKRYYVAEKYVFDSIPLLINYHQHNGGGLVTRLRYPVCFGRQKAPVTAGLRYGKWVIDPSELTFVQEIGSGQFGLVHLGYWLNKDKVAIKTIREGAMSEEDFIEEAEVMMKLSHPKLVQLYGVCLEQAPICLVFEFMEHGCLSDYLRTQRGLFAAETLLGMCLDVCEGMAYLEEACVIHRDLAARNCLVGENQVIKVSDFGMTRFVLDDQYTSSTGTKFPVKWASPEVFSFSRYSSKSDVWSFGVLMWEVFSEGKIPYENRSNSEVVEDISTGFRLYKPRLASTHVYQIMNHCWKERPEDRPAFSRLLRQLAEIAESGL
Sequence of UniProt Q8NG66 (whole entry, looked up): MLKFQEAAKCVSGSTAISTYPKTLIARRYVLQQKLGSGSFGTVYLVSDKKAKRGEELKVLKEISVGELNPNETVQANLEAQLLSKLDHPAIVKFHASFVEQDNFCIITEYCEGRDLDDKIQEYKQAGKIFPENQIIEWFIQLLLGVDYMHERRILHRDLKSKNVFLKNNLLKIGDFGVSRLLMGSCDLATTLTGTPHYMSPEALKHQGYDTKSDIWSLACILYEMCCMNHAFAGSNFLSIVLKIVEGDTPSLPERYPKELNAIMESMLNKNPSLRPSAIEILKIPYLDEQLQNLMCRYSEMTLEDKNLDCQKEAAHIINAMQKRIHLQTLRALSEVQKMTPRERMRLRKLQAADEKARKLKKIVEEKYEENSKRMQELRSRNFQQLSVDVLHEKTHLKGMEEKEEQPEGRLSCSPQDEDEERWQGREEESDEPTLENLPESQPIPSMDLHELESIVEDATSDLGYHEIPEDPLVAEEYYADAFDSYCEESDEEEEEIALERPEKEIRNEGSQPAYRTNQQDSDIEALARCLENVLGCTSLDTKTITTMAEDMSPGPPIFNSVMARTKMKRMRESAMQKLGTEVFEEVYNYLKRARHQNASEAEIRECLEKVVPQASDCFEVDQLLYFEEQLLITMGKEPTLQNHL

Set 1 — cell line: mouse MPNST tumor cells; method: high-content immunofluorescence imaging; item: nuclear SOX9; tested at: 10 µM; time: 12 h; setting: mean of 2 replicates; baseline: DMSO control; direction: higher = more nuclear SOX9; measurement: nuclear SOX9 intensity
Cc1cc(/C(=C/Nc2ccc(Cl)cc2)C(=O)Nc2ccc(Cl)cc2)on1: 123 % of DMSO
N[C@@H](Cn1ccc(=O)n(Cc2ccccc2C(=O)O)c1=O)C(=O)O: 97 % of DMSO
CCCCCCNC(=O)n1cc(F)c(=O)[nH]c1=O: 108 % of DMSO
CN1C(=O)N(c2cc(Cl)cc(Cl)c2)C(=O)[C@]12CN(c1ccc(C(=O)O)cn1)C[C@H]2c1ccc(C#N)cc1: 89.7 % of DMSO
C=CC1=C(C(=O)O)N2C(=O)[C@@H](NC(=O)/C(=N\OCC(=O)O)c3csc(N)n3)[C@H]2SC1: 95.2 % of DMSO
CC1(C)NC(=O)N(c2ccc([N+](=O)[O-])c(C(F)(F)F)c2)C1=O: 101 % of DMSO
CCn1c(=O)[nH]c2ccccc21: 104 % of DMSO
Nc1ccc(-c2nc3ccc(-c4nc5ccc(N)cc5[nH]4)cc3[nH]2)cc1: 117 % of DMSO
CC(=O)[C@H]1CC[C@H]2[C@@H]3C=CC4=CC(=O)CC[C@@]4(C)[C@@H]3CC[C@]12C: 104 % of DMSO
Cc1nc2ccc(NC(=O)Nc3ccnc4cccnc34)cc2o1: 112 % of DMSO
COC(=O)Nc1nc2cc(C(=O)c3ccccc3)ccc2[nH]1: 210 % of DMSO
CCOc1ccc(-c2nc(-c3cccc4c3CCC4NCCO)no2)cc1OCC (stereo not drawn): 217 % of DMSO
C[N+]1(C)CCC(OC(=O)C(O)(c2ccccc2)C2CCCC2)C1 (stereo not drawn): 116 % of DMSO
CN(C)[C@@H]1CCc2[nH]c3ccc(NC(=O)c4ccc(F)cc4)cc3c2C1: 115 % of DMSO
Cc1cccc(N(C)C(=S)Oc2ccc3ccccc3c2)c1: 121 % of DMSO
Cn1c(=O)c2c(nc(N3CCNCC3)n2Cc2nnc(-c3ccc(Cl)c(Cl)c3)o2)n(C)c1=O: 154 % of DMSO

Set 2 — effect on: enzyme activity; mode: inhibitor; tested at: 0.5 µM; baseline: control; measurement: remaining activity
Structure (SMILES): Cc1cc(Nc2cc(N3CCN(C)CC3)nc(Sc3ccc(NC(=O)C4CC4)cc3)n2)[nH]n1
Serine/threonine-protein kinase NLK (NLK, Homo sapiens, UniProt Q9UBE8): 103%
Tyrosine-protein kinase ITK/TSK (ITK, Homo sapiens, UniProt Q08881): 98.7%
Vascular endothelial growth factor receptor 3 (FLT4, Homo sapiens, UniProt P35916): 55.4%
LIM domain kinase 1 (LIMK1, Homo sapiens, UniProt P53667): 33.1%
Homeodomain-interacting protein kinase 1 (HIPK1, Homo sapiens, UniProt Q86Z02): 98.6%
PAS domain-containing serine/threonine-protein kinase (PASK, Homo sapiens, UniProt Q96RG2): 99.2%
Tyrosine-protein kinase Fer (FER, Homo sapiens, UniProt P16591): 92.2%
MAP/microtubule affinity-regulating kinase 3 (MARK3, Homo sapiens, UniProt P27448): 96.9%
RAC-alpha serine/threonine-protein kinase (AKT1, Homo sapiens, UniProt P31749): 99.2%
Serine/threonine-protein kinase TAO3 (TAOK3, Homo sapiens, UniProt Q9H2K8): 76.3%
ALK tyrosine kinase receptor (ALK, Homo sapiens, UniProt Q9UM73): 91.5%
Serine/threonine-protein kinase 25 (STK25, Homo sapiens, UniProt O00506): 94.8%
cAMP-dependent protein kinase catalytic subunit PRKX (PRKX, Homo sapiens, UniProt P51817): 137%
Tyrosine-protein kinase Fyn (FYN, Homo sapiens, UniProt P06241): 72.2%
Cyclin-dependent kinase 3, with cyclin E (CDK3, Homo sapiens, UniProt Q00526): 95.3%
Serine/threonine-protein kinase MRCK alpha (CDC42BPA, Homo sapiens, UniProt Q5VT25): 75.3%
Megakaryocyte-associated tyrosine-protein kinase (MATK, Homo sapiens, UniProt P42679): 78.7%
Serine/threonine-protein kinase N1 (PKN1, Homo sapiens, UniProt Q16512): 82.6%
Proto-oncogene tyrosine-protein kinase Src (SRC, Homo sapiens, UniProt P12931): 26.7%
Serine/threonine-protein kinase Nek11 (NEK11, Homo sapiens, UniProt Q8NG66): 82.8%
Tyrosine-protein kinase Fgr (FGR, Homo sapiens, UniProt P09769): 58.2%

Set 3 — effect on: binding; method: radioligand binding; tested at: 10 µM; measurement: inhibition
SMILES: CCC(=O)N[C@H]1CC[C@@H](C(=O)N(C)c2ccc(-c3nc4ccccc4o3)cc2)C1
Histamine H2 receptor (HRH2, Homo sapiens, UniProt P25021): -1.25%
Alpha-2B adrenergic receptor (ADRA2B, Homo sapiens, UniProt P18089): 5.31%
D(1A) dopamine receptor (DRD1, Homo sapiens, UniProt P21728): -2.15%
Alpha-2C adrenergic receptor (ADRA2C, Homo sapiens, UniProt P18825): -5.31%
Muscarinic acetylcholine receptor M4 (CHRM4, Homo sapiens, UniProt P08173): 28.9%
Histamine H1 receptor (HRH1, Homo sapiens, UniProt P35367): 20.9%
Histamine H4 receptor (HRH4, Homo sapiens, UniProt Q9H3N8): 39.3%
5-hydroxytryptamine receptor 7 (HTR7, Homo sapiens, UniProt P34969): -6.53%
Beta-3 adrenergic receptor (ADRB3, Homo sapiens, UniProt P13945): 34.9%
Muscarinic acetylcholine receptor M2 (CHRM2, Homo sapiens, UniProt P08172): 4.58%
5-hydroxytryptamine receptor 3A (HTR3A, Homo sapiens, UniProt P46098): -1.4%
Alpha-1B adrenergic receptor (ADRA1B, Homo sapiens, UniProt P35368): -6.32%

Set 4 — effect on: enzyme activity; mode: inhibitor; tested at: 10 µM; measurement: inhibition
Target: Calcium/calmodulin-dependent protein kinase type II subunit alpha (CAMK2A, Homo sapiens, UniProt Q9UQM7)
Sequence of UniProt Q9UQM7 (whole entry, looked up): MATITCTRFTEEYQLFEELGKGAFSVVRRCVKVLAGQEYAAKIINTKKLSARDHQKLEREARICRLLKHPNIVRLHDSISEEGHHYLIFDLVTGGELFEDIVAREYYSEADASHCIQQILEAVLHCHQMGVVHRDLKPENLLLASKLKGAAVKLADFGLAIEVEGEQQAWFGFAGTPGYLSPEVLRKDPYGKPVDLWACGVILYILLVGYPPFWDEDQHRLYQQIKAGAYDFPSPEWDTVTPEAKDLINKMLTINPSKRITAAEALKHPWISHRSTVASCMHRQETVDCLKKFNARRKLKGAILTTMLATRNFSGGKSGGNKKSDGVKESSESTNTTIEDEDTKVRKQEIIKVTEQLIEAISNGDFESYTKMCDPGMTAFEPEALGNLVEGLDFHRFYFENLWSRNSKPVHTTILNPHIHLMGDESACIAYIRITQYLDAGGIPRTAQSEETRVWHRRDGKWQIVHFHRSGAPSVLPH
C[C@@H]1O[C@@H](O[C@H]2C(=O)c3c(O)cc(O)cc3O[C@H]2c2ccc(O)c(O)c2)[C@H](O)[C@H](O)[C@H]1O: -7%
O=C(/C=C/c1ccc(O)cc1)c1ccccc1: 78%
NC[C@H]1O[C@H](O[C@H]2[C@H](O)[C@@H](O[C@H]3O[C@H](CO)[C@@H](O)[C@H](N)[C@H]3O)[C@H](N)C[C@@H]2N)[C@H](N)[C@@H](O)[C@@H]1O: 5%
CC(C)=CC[C@H](O)C1=CC(=O)c2c(O)ccc(O)c2C1=O: 46%
CCCCCCCCCCCCCCCCCCCCCCCCCCCCC: 14%
NC(=O)N[C@@H](CCC(=O)O)C(=O)O: -1%
CC(C)=CCc1c(O[C@@H]2O[C@H](CO)[C@@H](O)[C@H](O)[C@H]2O)cc(O)c2c(=O)c(O[C@@H]3O[C@@H](C)[C@H](O)[C@@H](O)[C@H]3O)c(-c3ccc(O)cc3)oc12: -4%
O=C(O)c1cc(/N=N/c2ccc(O)c(C(=O)O)c2)ccc1O: -6%
CC(=O)c1c(C)cc2cccc(O)c2c1O: 12%
OC[C@H]1O[C@@](CO)(OC[C@@]2(OC[C@@]3(O[C@H]4O[C@H](CO)[C@@H](O)[C@H](O)[C@H]4O)O[C@H](CO)[C@@H](O)[C@@H]3O)O[C@H](CO)[C@@H](O)[C@@H]2O)[C@@H](O)[C@@H]1O: -20%
O=c1oc2cc(O)ccc2c2ccccc12: -49%

Excerpt of the above (set 4):
O=C(/C=C/c1ccc(O)cc1)c1ccccc1: 78%
NC[C@H]1O[C@H](O[C@H]2[C@H](O)[C@@H](O[C@H]3O[C@H](CO)[C@@H](O)[C@H](N)[C@H]3O)[C@H](N)C[C@@H]2N)[C@H](N)[C@@H](O)[C@@H]1O: 5%
CC(C)=CC[C@H](O)C1=CC(=O)c2c(O)ccc(O)c2C1=O: 46%
CCCCCCCCCCCCCCCCCCCCCCCCCCCCC: 14%
NC(=O)N[C@@H](CCC(=O)O)C(=O)O: -1%
CC(C)=CCc1c(O[C@@H]2O[C@H](CO)[C@@H](O)[C@H](O)[C@H]2O)cc(O)c2c(=O)c(O[C@@H]3O[C@@H](C)[C@H](O)[C@@H](O)[C@H]3O)c(-c3ccc(O)cc3)oc12: -4%
O=C(O)c1cc(/N=N/c2ccc(O)c(C(=O)O)c2)ccc1O: -6%
CC(=O)c1c(C)cc2cccc(O)c2c1O: 12%
OC[C@H]1O[C@@](CO)(OC[C@@]2(OC[C@@]3(O[C@H]4O[C@H](CO)[C@@H](O)[C@H](O)[C@H]4O)O[C@H](CO)[C@@H](O)[C@@H]3O)O[C@H](CO)[C@@H](O)[C@@H]2O)[C@@H](O)[C@@H]1O: -20%
O=c1oc2cc(O)ccc2c2ccccc12: -49%
